Assay results of several laboratories.
Lines come from different studies, so protocols differ. ± gives the spread as reported.
PIK3CA: Phosphatidylinositol 4,5-bisphosphate 3-kinase catalytic subunit alpha isoform (PIK3CA, Homo sapiens, UniProt P42336)
Sequence of UniProt P42336 (whole entry, looked up): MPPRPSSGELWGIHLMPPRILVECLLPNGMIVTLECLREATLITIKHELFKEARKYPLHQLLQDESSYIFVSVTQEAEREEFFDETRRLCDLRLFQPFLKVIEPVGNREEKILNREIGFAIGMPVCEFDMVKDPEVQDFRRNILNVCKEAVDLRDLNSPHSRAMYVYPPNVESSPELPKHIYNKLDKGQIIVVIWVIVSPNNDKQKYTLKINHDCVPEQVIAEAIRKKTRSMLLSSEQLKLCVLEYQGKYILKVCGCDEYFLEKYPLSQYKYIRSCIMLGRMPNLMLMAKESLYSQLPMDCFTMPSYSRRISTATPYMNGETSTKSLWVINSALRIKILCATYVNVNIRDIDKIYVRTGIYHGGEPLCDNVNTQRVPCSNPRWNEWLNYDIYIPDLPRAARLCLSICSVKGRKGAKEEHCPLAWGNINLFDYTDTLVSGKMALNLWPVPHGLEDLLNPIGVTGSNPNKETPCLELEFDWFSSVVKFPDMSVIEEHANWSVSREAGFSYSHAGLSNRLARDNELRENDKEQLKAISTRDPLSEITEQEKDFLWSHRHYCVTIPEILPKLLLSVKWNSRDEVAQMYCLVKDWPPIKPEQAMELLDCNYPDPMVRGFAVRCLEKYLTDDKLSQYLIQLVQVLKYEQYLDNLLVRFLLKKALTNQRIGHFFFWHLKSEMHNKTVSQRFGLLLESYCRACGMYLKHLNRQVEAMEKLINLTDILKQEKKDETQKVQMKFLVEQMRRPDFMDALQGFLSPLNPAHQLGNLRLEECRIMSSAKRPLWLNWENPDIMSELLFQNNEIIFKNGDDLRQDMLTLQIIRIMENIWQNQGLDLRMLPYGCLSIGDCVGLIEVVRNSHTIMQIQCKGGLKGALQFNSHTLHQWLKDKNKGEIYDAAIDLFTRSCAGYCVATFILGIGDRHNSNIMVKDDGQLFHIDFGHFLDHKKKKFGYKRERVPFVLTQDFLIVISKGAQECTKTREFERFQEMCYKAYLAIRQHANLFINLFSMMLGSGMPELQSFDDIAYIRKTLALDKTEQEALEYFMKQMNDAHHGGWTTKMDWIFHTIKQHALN
Slc6a4: Sodium-dependent serotonin transporter (Slc6a4, Rattus norvegicus, UniProt P31652)
Sequence of UniProt P31652 (whole entry, looked up): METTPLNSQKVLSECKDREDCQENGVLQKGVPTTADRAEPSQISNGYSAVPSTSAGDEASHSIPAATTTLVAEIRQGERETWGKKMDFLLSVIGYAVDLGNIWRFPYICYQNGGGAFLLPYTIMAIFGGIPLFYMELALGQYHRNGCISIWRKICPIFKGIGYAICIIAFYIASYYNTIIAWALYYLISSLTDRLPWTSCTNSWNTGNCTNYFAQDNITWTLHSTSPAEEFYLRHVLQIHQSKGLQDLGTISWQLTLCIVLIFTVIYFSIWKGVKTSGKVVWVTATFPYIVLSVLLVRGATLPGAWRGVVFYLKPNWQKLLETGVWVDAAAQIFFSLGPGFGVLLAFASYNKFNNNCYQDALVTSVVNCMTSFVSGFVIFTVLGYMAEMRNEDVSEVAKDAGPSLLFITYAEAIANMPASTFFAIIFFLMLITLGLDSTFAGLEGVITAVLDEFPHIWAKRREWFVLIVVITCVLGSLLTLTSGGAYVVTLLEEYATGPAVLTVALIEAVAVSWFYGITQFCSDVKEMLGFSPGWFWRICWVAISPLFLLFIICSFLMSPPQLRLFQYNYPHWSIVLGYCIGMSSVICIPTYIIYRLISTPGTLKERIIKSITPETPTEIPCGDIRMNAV
SIGMAR1: Sigma non-opioid intracellular receptor 1 (SIGMAR1, Homo sapiens, UniProt Q99720)
Sequence of UniProt Q99720 (whole entry, looked up): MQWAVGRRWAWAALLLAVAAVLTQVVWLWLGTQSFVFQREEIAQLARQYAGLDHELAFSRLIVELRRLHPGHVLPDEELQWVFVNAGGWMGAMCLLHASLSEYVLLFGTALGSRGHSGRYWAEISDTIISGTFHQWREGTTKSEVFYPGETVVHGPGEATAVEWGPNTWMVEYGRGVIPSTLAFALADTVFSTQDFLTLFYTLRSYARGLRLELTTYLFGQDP
Sequence of UniProt P34969 (whole entry, looked up): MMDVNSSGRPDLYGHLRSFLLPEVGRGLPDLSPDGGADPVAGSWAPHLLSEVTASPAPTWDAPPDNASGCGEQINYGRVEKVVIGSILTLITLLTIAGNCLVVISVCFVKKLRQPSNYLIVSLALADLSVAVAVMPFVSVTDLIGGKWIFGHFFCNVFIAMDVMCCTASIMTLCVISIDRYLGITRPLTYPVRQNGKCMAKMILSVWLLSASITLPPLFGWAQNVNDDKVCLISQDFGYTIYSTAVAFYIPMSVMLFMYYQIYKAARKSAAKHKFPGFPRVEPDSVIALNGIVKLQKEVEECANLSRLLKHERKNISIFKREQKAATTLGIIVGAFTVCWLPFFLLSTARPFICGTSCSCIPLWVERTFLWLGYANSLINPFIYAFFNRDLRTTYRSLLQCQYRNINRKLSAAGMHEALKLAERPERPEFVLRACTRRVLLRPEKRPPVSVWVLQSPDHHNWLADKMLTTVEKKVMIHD
Sequence of UniProt Q9Y2K2 (whole entry, looked up): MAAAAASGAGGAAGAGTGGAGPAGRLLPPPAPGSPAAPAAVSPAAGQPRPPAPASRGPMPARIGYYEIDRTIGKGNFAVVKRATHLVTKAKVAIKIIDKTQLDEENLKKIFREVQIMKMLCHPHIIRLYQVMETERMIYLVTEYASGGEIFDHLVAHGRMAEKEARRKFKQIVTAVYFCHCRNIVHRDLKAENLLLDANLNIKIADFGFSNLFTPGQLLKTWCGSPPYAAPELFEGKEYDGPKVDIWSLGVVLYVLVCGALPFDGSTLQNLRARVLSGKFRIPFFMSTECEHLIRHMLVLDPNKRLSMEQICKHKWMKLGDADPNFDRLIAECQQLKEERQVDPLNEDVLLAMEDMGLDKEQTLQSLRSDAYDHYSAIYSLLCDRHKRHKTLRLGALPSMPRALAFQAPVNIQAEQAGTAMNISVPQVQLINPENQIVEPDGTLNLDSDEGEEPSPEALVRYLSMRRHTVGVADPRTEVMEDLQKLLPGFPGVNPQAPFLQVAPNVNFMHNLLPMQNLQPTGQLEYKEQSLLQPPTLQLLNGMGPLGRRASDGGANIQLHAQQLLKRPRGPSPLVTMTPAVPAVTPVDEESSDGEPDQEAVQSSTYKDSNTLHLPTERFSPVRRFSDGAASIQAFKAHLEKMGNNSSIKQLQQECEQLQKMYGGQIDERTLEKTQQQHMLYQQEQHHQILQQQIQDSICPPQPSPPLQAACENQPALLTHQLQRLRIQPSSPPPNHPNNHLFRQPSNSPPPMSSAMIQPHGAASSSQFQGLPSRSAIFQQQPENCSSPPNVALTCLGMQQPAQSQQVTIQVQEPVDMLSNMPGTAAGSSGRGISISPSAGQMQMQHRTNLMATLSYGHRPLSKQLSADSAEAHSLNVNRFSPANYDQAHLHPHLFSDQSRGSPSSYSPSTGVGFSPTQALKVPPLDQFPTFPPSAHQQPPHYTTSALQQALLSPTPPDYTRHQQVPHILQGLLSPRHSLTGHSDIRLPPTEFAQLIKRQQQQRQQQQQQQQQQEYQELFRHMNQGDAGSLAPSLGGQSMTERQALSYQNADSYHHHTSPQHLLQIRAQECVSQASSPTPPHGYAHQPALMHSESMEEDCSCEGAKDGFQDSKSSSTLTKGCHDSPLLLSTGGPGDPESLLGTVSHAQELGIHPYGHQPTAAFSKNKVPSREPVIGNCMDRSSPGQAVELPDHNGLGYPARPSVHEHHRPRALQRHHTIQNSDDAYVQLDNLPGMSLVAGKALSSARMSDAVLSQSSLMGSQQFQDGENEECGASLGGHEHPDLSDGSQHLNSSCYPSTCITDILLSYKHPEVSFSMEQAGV
Sequence of UniProt C7FF04 (whole entry, looked up): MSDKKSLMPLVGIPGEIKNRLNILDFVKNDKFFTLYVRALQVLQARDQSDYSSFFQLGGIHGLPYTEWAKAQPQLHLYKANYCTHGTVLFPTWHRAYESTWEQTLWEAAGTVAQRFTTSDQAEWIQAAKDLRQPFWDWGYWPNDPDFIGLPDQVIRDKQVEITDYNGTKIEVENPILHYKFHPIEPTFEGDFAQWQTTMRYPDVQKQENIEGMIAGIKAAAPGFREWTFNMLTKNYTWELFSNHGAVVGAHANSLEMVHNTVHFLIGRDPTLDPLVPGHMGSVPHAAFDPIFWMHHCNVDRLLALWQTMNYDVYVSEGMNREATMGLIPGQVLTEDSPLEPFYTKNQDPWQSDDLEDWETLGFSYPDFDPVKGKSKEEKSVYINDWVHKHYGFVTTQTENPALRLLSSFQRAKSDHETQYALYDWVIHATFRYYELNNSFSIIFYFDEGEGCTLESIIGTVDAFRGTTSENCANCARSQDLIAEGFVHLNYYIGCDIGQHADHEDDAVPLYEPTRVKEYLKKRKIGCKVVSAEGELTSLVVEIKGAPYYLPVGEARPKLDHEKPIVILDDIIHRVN
Sequence of UniProt P07339 (whole entry, looked up): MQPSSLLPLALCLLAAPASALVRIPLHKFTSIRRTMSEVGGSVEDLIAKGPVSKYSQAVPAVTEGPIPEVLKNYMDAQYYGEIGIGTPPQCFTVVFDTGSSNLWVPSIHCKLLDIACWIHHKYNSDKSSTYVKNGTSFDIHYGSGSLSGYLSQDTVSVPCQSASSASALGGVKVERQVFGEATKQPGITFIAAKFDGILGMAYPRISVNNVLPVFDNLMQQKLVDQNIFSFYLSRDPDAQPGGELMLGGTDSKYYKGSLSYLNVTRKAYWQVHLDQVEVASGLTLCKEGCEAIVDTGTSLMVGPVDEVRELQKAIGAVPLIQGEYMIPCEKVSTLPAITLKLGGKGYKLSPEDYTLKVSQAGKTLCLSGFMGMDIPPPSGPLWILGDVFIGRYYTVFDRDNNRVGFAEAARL

| Compound | target | test | test system | setting | Ki [nM] |
| --- | --- | --- | --- | --- | --- |
| O=C(NCCCCOP(=O)(O)OP(=O)(O)OP(=O)(O)O)OCC1c2ccccc2-c2ccccc21 | DNA polymerase alpha catalytic subunit (POLA1, Homo sapiens, UniProt P09884) | enzyme activity, inhibitor, radiometric | – | – | 112000 |
| Nc1ncc(-c2nc(N3CCOCC3)nc(N3CCN(C(=O)CCC(=O)NCCCCCCCCC#Cc4cccc5c4C(=O)N(C4CCC(=O)NC4=O)C5=O)CC3)n2)c(C(F)F)n1 (centres unmarked) | PIK3CA | ligand displacement, TR-FRET | – | – | 2.45 |
| COc1ccc(C(CCN)c2ccc(F)cc2)cc1 (centres unmarked) | Slc6a4 | ligand displacement, radioligand | – | – | 22.3 |
| O[C@@H]1Cc2cccc(OCCF)c2C[C@H]1N1CCC(c2ccccc2)CC1 | SIGMAR1 | displacement, radioligand binding | HEK293 | together with: [3H](+)-pentazocine | 2300 ± 400 |
| O=C(CCC(=O)N1CCN(c2nc(N3CCOCC3)nc(-n3c(C(F)F)nc4ccccc43)n2)CC1)NCCCCCC(=O)Nc1cccc2c1C(=O)N(C1CCC(=O)NC1=O)C2=O (centres unmarked) | PIK3CA | ligand displacement, TR-FRET | – | – | 19.4 |
| CN1CCN(c2ccc3cnn(Cc4cccc5ccccc45)c3c2)CC1 | 5-hydroxytryptamine receptor 7, isoform 5-HT7b (HTR7, Homo sapiens, UniProt P34969) | binding, radioligand displacement | HEK293 membranes | 1 h, 37 °C, 5-HT7b isoform, together with: 0.6 nM [3H]-5-CT | 3120 ± 422 |
| Cn1ccc2c(N3CCN(CCCCOc4ccc5c(c4)NC(=O)CC5)CC3)cccc21 | 5-hydroxytryptamine receptor 7 (HTR7, Homo sapiens, UniProt P34969) | ligand displacement, radioligand | – | – | 53 |
| OCC1CCCN1Cc1cccc(Oc2ccccc2)c1 (centres unmarked) | Slc6a4 | ligand displacement, radioligand | – | – | 926 |
| Nc1ncc(-c2nc(N3CCOCC3)nc(N3CCN(C(=O)CCC(=O)NCCCCCCCCNc4cccc5c4C(=O)N(C4CCC(=O)NC4=O)C5=O)CC3)n2)c(C(F)F)n1 (centres unmarked) | PIK3CA | ligand displacement, TR-FRET | – | – | 1.85 |
| C[C@]12COc3ccc(OCc4ccc(C(F)(F)F)cc4)cc3[C@H]1CCN2 | SIGMAR1 | cell-free assay, radioligand | – | – | 2.4 |
| Oc1cc(O)c2cc(O[C@@H]3OC[C@H](O)[C@H](O)[C@H]3O)c(-c3ccc(O)c(O)c3)[o+]c2c1 | PPO3 (Agaricus bisporus, UniProt C7FF04) | enzyme activity, inhibitor | – | – | 16100 |
| Nc1ncc(-c2nc(N3CCOCC3)nc(N3CCN(C(=O)CCC(=O)NCCCCCCNc4cccc5c4C(=O)N(C4CCC(=O)NC4=O)C5=O)CC3)n2)c(C(F)F)n1 (centres unmarked) | PIK3CA | ligand displacement, TR-FRET | – | – | 1.85 |
| CCC1(CC)CC(=O)N(C2c3cc(C(=O)NC4c5ccccc5CC4O)ccc3OC2(C)COC)C(=N)N1 (centres unmarked) | Cathepsin D (CTSD, Homo sapiens, UniProt P07339) | enzyme activity, inhibitor | – | – | 2840 |
| CN(C)C(CNC(=O)c1ccc2c3c(cccc13)CC2)c1ccccc1 (centres unmarked) | Slc6a4 | ligand displacement, radioligand | – | – | 127 |
| OC1Cc2ccccc2CC1N1CCC(c2ccc(Br)cc2)CC1 (racemic) | SIGMAR1 | displacement, radioligand binding | HEK293 | together with: [3H](+)-pentazocine | 2.6 ± 1.1 |
| CCCCN1CCC(COC(=O)c2ccc(N)c(OCF)c2)CC1 [fluorine-18 labelled] | SIGMAR1 | NIMH-PDSP radioligand binding | – | – | 72 |
| Cc1ccc2c(c1)C1CN(C)CCC1N2Sc1ccccc1[N+](=O)[O-] (centres unmarked) | Slc6a4 | ligand displacement, radioligand | – | – | 268 |
| CN1CC[C@@H](COc2cnc(C#N)cc2-c2ccn3nc(NC(=O)C4CC4)cc3c2)C1 | Serine/threonine-protein kinase SIK3 (SIK3, Homo sapiens, UniProt Q9Y2K2) | enzyme activity, inhibitor | – | – | 51 |
| Brc1ccc(C2NCCn3cccc32)cc1 (centres unmarked) | Slc6a4 | ligand displacement, radioligand | – | – | 2300 |
| C[C@]12COc3ccc(OCc4ccc5ccccc5c4)cc3[C@H]1CCN2 | SIGMAR1 | cell-free assay, radioligand | – | – | 10 |

A few entries again:
| Compound | target | test | test system | setting | Ki [nM] |
| --- | --- | --- | --- | --- | --- |
| CN(C)C(CNC(=O)c1ccc2c3c(cccc13)CC2)c1ccccc1 (centres unmarked) | Slc6a4 | ligand displacement, radioligand | – | – | 127 |
| OC1Cc2ccccc2CC1N1CCC(c2ccc(Br)cc2)CC1 (racemic) | SIGMAR1 | displacement, radioligand binding | HEK293 | together with: [3H](+)-pentazocine | 2.6 ± 1.1 |
| CCCCN1CCC(COC(=O)c2ccc(N)c(OCF)c2)CC1 [fluorine-18 labelled] | SIGMAR1 | NIMH-PDSP radioligand binding | – | – | 72 |
